Assay results gathered from unrelated publications.
Parts stem from different laboratories: compare values within a part only. Values joined by “and” are separate records of one study, mostly repeats; a detail may differ.
Sequence of UniProt P52333 (whole entry, looked up): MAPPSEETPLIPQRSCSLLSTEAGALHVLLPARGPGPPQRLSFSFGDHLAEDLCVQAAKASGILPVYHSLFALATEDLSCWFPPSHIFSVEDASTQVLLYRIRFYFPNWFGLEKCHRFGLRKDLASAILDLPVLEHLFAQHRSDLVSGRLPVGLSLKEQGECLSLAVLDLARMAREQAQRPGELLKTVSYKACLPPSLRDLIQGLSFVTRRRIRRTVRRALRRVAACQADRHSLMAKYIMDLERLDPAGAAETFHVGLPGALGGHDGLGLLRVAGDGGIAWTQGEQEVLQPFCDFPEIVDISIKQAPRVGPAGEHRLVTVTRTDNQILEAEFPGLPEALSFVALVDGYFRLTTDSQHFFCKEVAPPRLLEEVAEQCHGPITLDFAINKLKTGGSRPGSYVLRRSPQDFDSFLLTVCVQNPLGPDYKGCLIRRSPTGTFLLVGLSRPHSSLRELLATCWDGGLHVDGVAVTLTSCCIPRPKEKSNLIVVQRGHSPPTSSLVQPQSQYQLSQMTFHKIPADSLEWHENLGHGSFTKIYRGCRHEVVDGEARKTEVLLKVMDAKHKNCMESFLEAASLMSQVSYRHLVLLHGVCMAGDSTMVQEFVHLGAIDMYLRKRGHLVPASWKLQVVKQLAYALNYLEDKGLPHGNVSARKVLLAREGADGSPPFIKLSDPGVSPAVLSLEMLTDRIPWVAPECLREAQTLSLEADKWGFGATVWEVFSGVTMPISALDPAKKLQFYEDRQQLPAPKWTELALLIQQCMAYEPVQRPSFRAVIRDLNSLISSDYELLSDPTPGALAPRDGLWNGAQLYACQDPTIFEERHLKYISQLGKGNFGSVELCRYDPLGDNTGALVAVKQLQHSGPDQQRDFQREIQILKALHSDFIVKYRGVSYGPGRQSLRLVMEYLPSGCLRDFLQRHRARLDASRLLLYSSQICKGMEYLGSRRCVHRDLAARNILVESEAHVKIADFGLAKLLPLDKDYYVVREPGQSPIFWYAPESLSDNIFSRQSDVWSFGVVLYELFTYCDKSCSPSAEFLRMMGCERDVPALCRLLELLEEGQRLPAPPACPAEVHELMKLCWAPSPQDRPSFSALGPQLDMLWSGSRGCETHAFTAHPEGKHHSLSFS
Sequence of UniProt Q9BVS4 (whole entry, looked up): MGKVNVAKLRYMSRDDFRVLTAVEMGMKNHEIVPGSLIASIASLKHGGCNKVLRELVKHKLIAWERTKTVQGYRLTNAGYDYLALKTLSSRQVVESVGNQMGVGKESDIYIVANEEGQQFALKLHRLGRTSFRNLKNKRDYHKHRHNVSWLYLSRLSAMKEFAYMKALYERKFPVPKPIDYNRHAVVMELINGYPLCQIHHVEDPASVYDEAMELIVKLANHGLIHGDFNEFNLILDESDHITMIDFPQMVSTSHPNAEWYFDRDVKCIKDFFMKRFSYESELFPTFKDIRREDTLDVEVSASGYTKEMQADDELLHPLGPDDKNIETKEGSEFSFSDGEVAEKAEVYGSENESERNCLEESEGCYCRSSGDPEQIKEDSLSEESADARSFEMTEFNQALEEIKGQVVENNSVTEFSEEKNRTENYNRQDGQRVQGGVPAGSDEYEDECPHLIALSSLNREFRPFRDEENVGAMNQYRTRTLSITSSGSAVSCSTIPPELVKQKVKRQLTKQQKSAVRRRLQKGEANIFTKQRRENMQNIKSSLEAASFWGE
Sequence of UniProt O75460 (whole entry, looked up): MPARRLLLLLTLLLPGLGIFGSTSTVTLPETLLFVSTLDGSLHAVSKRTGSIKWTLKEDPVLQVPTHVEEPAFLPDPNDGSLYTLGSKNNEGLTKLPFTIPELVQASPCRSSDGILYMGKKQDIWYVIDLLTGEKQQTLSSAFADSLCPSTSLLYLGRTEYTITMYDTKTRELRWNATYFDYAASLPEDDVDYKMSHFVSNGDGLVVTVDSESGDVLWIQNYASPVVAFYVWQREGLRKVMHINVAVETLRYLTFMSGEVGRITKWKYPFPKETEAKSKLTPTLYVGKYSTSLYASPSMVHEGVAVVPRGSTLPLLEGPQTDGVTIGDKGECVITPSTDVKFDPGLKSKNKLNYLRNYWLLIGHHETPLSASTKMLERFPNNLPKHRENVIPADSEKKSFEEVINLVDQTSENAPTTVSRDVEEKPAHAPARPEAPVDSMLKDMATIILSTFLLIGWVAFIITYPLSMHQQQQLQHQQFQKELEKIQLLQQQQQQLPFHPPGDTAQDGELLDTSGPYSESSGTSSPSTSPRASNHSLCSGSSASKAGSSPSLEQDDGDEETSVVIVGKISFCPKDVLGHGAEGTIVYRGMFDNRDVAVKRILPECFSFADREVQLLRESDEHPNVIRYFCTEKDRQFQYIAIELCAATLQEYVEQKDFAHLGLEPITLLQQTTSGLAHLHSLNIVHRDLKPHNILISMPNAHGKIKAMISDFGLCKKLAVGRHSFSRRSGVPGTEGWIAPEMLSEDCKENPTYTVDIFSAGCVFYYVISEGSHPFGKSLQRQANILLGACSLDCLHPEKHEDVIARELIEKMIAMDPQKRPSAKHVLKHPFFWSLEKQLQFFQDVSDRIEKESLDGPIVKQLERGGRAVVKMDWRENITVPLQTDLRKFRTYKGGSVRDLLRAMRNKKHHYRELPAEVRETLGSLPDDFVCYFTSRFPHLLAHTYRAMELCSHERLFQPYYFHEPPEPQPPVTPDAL
Sequence of UniProt Q6ZWH5 (whole entry, looked up): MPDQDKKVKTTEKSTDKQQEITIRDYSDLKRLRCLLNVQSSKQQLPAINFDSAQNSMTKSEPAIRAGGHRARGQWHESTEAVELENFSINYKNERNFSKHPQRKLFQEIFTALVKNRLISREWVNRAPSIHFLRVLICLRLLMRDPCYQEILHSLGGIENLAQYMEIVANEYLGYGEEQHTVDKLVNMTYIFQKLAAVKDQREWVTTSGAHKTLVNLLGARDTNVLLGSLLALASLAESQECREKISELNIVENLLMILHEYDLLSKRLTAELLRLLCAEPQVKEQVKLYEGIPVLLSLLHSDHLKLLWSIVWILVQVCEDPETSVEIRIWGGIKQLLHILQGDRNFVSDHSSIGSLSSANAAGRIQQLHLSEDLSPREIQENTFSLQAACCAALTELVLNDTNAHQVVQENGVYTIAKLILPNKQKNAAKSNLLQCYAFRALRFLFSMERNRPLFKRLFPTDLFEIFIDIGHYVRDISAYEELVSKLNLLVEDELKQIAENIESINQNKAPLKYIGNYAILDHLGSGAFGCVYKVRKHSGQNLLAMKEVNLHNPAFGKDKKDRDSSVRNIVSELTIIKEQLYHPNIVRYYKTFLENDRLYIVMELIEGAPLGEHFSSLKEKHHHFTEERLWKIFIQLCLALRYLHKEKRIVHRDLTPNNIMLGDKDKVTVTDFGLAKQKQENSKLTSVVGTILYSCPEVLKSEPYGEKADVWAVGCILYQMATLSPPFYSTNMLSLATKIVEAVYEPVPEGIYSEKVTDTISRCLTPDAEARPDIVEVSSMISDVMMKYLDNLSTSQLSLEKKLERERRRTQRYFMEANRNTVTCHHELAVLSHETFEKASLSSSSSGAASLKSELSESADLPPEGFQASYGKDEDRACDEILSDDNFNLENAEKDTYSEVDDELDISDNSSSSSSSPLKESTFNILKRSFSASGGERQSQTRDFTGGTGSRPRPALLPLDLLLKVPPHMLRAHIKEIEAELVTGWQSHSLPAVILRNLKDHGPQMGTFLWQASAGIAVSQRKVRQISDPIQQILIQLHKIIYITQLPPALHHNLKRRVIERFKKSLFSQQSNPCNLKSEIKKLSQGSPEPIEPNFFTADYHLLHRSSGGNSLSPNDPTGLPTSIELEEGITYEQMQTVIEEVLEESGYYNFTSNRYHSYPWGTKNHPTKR
Sequence of UniProt Q13546 (whole entry, looked up): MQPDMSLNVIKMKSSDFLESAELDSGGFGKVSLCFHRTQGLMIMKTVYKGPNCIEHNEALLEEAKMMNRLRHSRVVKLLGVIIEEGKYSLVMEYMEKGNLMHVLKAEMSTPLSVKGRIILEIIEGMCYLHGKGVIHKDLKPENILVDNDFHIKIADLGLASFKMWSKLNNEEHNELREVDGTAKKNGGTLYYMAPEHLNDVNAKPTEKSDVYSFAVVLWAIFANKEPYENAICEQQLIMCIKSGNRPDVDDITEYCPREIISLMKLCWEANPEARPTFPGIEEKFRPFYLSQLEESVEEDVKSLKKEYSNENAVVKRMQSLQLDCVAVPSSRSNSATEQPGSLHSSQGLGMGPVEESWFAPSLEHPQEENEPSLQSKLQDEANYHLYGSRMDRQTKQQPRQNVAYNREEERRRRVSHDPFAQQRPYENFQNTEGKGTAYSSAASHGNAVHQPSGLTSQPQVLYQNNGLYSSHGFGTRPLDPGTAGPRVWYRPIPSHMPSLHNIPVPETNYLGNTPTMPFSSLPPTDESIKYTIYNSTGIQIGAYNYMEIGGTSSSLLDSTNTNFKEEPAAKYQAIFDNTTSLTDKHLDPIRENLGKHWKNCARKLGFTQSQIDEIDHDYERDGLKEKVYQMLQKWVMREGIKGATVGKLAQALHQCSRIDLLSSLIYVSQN
Sequence of UniProt Q15831 (whole entry, looked up): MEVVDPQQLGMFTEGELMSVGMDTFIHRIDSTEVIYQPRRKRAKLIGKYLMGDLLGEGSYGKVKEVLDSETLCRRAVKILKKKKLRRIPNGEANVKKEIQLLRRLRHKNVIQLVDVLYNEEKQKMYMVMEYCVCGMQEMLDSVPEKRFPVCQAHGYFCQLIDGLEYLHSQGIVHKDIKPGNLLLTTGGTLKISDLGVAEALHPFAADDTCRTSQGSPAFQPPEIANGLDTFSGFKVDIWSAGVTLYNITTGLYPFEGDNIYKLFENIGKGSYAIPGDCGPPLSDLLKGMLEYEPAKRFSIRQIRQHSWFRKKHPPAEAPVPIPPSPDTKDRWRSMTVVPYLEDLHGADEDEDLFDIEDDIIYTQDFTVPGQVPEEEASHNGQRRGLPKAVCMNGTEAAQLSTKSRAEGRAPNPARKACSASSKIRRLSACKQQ

Study 1
SMILES: c1ccc(Oc2ccc(Nc3c4c(nc5ccccc35)CCC4)cc2)cc1
cell line	method	concentration	time	setting	cytotoxicity
J774.1	resazurin	0.32 µM	–	–	5% and 0%
PMA-differentiated THP-1 macrophages	–	0.008 µM	64 h	–	2% and 10%
RAW264.7	resazurin	0.066 µM	–	–	10% and -8%
RAW264.7	resazurin	0.32 µM	–	–	-8% and 10%
HEK293	resazurin	3.32 µM	–	10% serum	22% and 13%

Study 2
Cell line: mouse MPNST tumor cells
Method: high-content immunofluorescence imaging
Item: nuclear SOX9
Concentration: 10 µM
Time: 12 h
Setting: mean of 2 replicates
Reference: DMSO control
Reading: higher = more nuclear SOX9
SMILES	nuclear SOX9 intensity
COc1ccccc1-c1c[nH]c2ncc(-c3cncc(C(=O)N(C)C)c3)cc12	113 % of DMSO
CN1CC(=O)N2[C@H](c3ccc4c(c3)OCO4)c3[nH]c4ccccc4c3C[C@@H]2C1=O	92.8 % of DMSO and 91.2 % of DMSO
Cc1ccc(C)c(Oc2ccncc2C(=O)N2CCN(C3CC3)c3ccccc32)c1	113 % of DMSO
NS(=O)(=O)c1ccc2c(c1)C1C=CCC1C(c1ccc(Br)cc1)N2 (stereo not shown)	108 % of DMSO

Study 3
Compound: C[C@H]1CC[C@H](n2c3cnccc3c3cnc(Nc4ccc5c(n4)CCN(C(=O)CO)C5)nc32)CC1
Method: competition with immobilised ligand
Concentration: 1 µM
target	read-out	remaining binding [%]
Tyrosine-protein kinase JAK3, JH1 (JAK3, Homo sapiens, UniProt P52333)	cell-free assay	100
KIT (Homo sapiens, UniProt P10721)	binding	14
CIT (Homo sapiens, UniProt O14578)	binding	60

Study 4
Structure (SMILES): COCCOc1nc(-c2ccc(Cl)nc2)nc2c1CN(C(=O)c1ncn3ccccc13)CC2
Read-out: cell-free assay
Method: competition with immobilised ligand
Concentration: 0.1 µM
target	remaining binding [%]
NEK10 (Homo sapiens, UniProt Q6ZWH5)	100
Tyrosine-protein kinase ABL1, phosphorylated (ABL1, Homo sapiens, UniProt P00519, Y253F)	93
EGFR (Homo sapiens, UniProt P00533, L861Q)	99
CSF1R (Homo sapiens, UniProt P07333)	100
CDKL2 (Homo sapiens, UniProt Q92772)	98
RIOK3 (Homo sapiens, UniProt O14730)	100
PIK3CA (Homo sapiens, UniProt P42336, C420R)	95
PKMYT1 (Homo sapiens, UniProt Q99640)	100
RIPK1 (Homo sapiens, UniProt Q13546)	100
NEK7 (Homo sapiens, UniProt Q8TDX7)	100
EGFR (Homo sapiens, UniProt P00533, G719C)	85
ERN1 (Homo sapiens, UniProt O75460)	100
EPHA7 (Homo sapiens, UniProt Q15375)	100
CDK11A (Homo sapiens, UniProt Q9UQ88)	100
STK32C (Homo sapiens, UniProt Q86UX6)	100
MET (Homo sapiens, UniProt P08581, M1250T)	71
RIOK2 (Homo sapiens, UniProt Q9BVS4)	100
PRKD2 (Homo sapiens, UniProt Q9BZL6)	100
MYLK2 (Homo sapiens, UniProt Q9H1R3)	94
STK11 (Homo sapiens, UniProt Q15831)	100
CSNK1A1L (Homo sapiens, UniProt Q8N752)	100

Study 5
Compound: CC(C)n1cnc(-c2ccc(F)cc2)c1-c1ncc(C(=O)Nc2ccc(N3CCN(C)CC3)cc2)[nH]1
Method: phase 2a trial
Host: idiopathic pulmonary fibrosis patients
dose	setting	patients with dyspnoea
60 mg once daily	adverse event grade 5	0%
30 mg once daily	adverse event grade 3	0%
dose not given	adverse event grade 5, all dose arms pooled	0%

Study 6
Structure (SMILES): COc1cc(C(=O)OCCCN2CCCN(CCCOC(=O)c3cc(OC)c(OC)c(OC)c3)CC2)cc(OC)c1OC
Method: von Frey, 0.4 g filament
Host: mouse, CFA inflammatory pain
route	dose	time	setting	paw withdrawal frequency
intravenous	dose not given	24 h post-dose	third injection, day 5	100% and 80% and 90%
intravenous	dose not given	24 h post-dose	second injection, day 3	90% and 100% and 80%
subcutaneous	10 mg/kg	baseline before CFA	–	0% and 10%
intravenous	dose not given	3 h post-dose	second injection, day 3	80% and 90%

Study 7
Host: human
Matrix: microsomes or S9
Concentration: 2 µM
Time: 0.5 h
Compound	remaining compound
CCc1c(C)sc(NC(=O)CN2CCN(C(=O)C3CCCO3)CC2)c1C(=O)OC (stereo not shown)	0.0106%
CC(C)N(C1=CC(=O)OC12CCCCC2)C(C)C	40.1%
c1ccc(-c2nnc3n2CCN(c2ccc4nccnc4n2)C3)cc1	> 100%

For quick reference, copied from above (study 6):
route	dose	time	setting	paw withdrawal frequency
intravenous	dose not given	3 h post-dose	second injection, day 3	80% and 90%
intravenous	dose not given	24 h post-dose	third injection, day 5	100% and 80% and 90%
